{"data": "Literature values, collected from citations in different studies", "note": "“And” joins repeats or separate records; there may be more than shown. Numbers after ± are the reported error."}
{"SMILES": "CCCCCOc1ccc(-c2cc(-c3ccc(C(=O)N[C@H]4C[C@@H](O)[C@@H](O)NC(=O)[C@@H]5[C@@H](O)[C@@H](C)CN5C(=O)[C@H]([C@H](O)CC(N)=O)NC(=O)[C@H]([C@H](O)[C@@H](O)c5ccc(O)c(OS(=O)(=O)O)c5)NC(=O)[C@@H]5C[C@@H](O)CN5C(=O)[C@H]([C@@H](C)O)NC4=O)cc3)no2)cc1", "system": "human, plasma", "endpoint": "fu", "result": "< 0.2%"}
{"SMILES": "CC(C)c1ccc(NC(=O)N(C)C)cc1", "endpoint": "log Kow", "result": 2.87}
{"SMILES": "C=CC(=O)N[C@H]1C=C(C)c2c(-c3cnc4ccccc4c3)c3c(N)ncnc3n2C1", "test": "phase 1/2 trial", "system": "human, NSCLC patients", "setting": "dose not given", "endpoint": "patients with adverse events", "result": "23%"}
{"SMILES": "CC(=O)C[C@@H](c1ccccc1)c1c(O)c2ccccc2oc1=O", "system": "human, fasted", "setting": "oral, 12.5 mg single dose, with: racemic warfarin 25 mg", "endpoint": "Tmax", "result": "1.72 h"}
{"SMILES": "C[C@]12CC[C@H](n3ccnc3)CC1=CC[C@@H]1[C@@H]2CC[C@]2(C)C(n3cnc4ccccc43)=CC[C@@H]12", "system": "male CD-1 mice", "setting": "oral, dose not given", "endpoint": "oral bioavailability", "result": "49.5%"}
{"SMILES": "CN(C)CCCN1c2ccccc2CCc2ccc(Cl)cc21", "system": "dog", "endpoint": "fraction unbound", "result": 0.004}
{"SMILES": "CC(C)CNC(=O)[C@@H](N)Cc1ccc(OP2(=O)CO[C@@H](Cn3cnc4c(N)ncnc43)CO2)cc1 (stereo partly shown)", "system": "PBS", "setting": "pH 6.5, Sp isomer", "endpoint": "half-life", "result": "2.03 h"}
{"SMILES": "O=C(O)C(F)(F)C(F)(F)C(F)(F)C(F)(F)C(F)(F)C(F)(F)C(F)(F)F", "system": "human", "endpoint": "half-life", "result": "24000 h"}
{"SMILES": "N#C[C@@]1(c2ccc3c(N)ncnn23)O[C@H](CO)[C@@H](O)[C@H]1O", "system": "rhesus macaque", "setting": "intravenous, 10 mg/kg remdesivir", "endpoint": "lung concentration", "result": "2670 nmol/kg"}
{"SMILES": "O=C(O)c1cc(-c2ccc(C3CCNCC3)cc2)c2ccc(-c3ccc(C(F)(F)F)cc3)cc2c1", "setting": "pH 7.4", "endpoint": "solubility", "result": "0.36 ± 0.03 µg/mL"}
{"SMILES": "Brc1ccc(Oc2c(Br)cc(Br)cc2Br)c(Br)c1", "setting": "25 °C", "endpoint": "water solubility", "result": "0.04 µg/mL"}
{"SMILES": "O=c1ccc2ncc(=O)n3c2n1C[C@H]3CN1CCC(NCc2cc3c(cn2)OCCC3)CC1", "system": "plasma", "setting": "intravenous, concentration not given, single dose 14C-labelled", "endpoint": "parent share of radioactivity AUC(0-inf)", "result": "63%"}
{"SMILES": "COC(=O)C(N)Cc1ccc(OP2(=O)COC(Cn3ccc(N)nc3=O)CO2)cc1 (stereo not shown)", "system": "PBS", "setting": "pH 6.5, Sp isomer", "endpoint": "half-life", "result": "1.52 h"}
{"SMILES": "CC(F)(F)c1cc(F)ccc1-c1sc2cc(O)ccc2c1Oc1ccc(/C=C/C(=O)O)cc1", "system": "rat", "setting": "concentration not given, 4 weeks", "endpoint": "STD10", "result": "300 mg/kg/day"}
{"SMILES": "CN1[C@@H]2CC[C@H]1C[C@@H](OC(=O)c1c[nH]c3ccccc13)C2", "system": "mouse", "endpoint": "fraction unbound", "result": 0.059}
{"SMILES": "CN1CCN(C2=Nc3ccccc3Oc3ccc(Cl)cc32)CC1", "system": "human, plasma", "setting": "concentration not given, range of reported values", "endpoint": "Cmax", "result": "20 to 411 nM"}
{"SMILES": "CCOC(=O)N1c2ccc(C(F)(F)F)cc2[C@@H](N(Cc2cc(C(F)(F)F)cc(C(F)(F)F)c2)c2ncc(OCCCC(=O)O)cn2)C[C@H]1CC", "system": "human", "setting": "concentration not given, fed state", "scale": "baseline: fasted", "endpoint": "exposure increase", "result": "~1.6 fold"}
{"SMILES": "O=C(O)C(F)(F)C(F)(F)C(F)(F)C(F)(F)C(F)(F)C(F)(F)C(F)(F)F", "test": "conductometry, literature value", "endpoint": "pKa", "result": 1.31}
{"SMILES": "O=C(O)C(F)(F)C(F)(F)C(F)(F)C(F)(F)C(F)(F)C(F)(F)C(F)(F)C(F)(F)C(F)(F)C(F)(F)F", "system": "plasma", "endpoint": "plasma fraction unbound", "result": 0.0116}
{"SMILES": "c1cc2ccc3cccc4ccc(c1)c2c34", "system": "zebrafish embryos, whole embryo", "setting": "109 ng/well, 48 hpf, single exposure", "endpoint": "amount in tissue", "result": "24.6 ng/well and 23.2 ng/well and 25.9 ng/well"}
{"SMILES": "O=C(CCCCC1SCC2NC(=O)NC21)Nc1cccc([211At])c1 (stereo not shown)", "system": "human serum", "setting": "24 h", "endpoint": "intact compound remaining", "result": "64%"}
{"SMILES": "c1ccc2c(c1)ccc1c3ccccc3ccc21", "system": "zebrafish embryos, whole embryo", "setting": "284.9 ng/well, 48 hpf, single exposure", "endpoint": "amount in tissue", "result": "0.128 ng/well and 0.17 ng/well and 0.159 ng/well"}
{"SMILES": "CCOC(=O)C1=C[C@@H](OC(CC)CC)[C@H](NC(C)=O)[C@@H](N)C1", "system": "rat", "setting": "dose not given", "endpoint": "volume of distribution", "result": "3.1 L/kg"}
{"SMILES": "C=C[C@@H]1C[C@]1(NC(=O)[C@@H]1C[C@@H]2CN1C(=O)[C@H](C(C)(C)C)NC(=O)O[C@@H]1C[C@H]1CCCCCc1nc3ccc(OC)cc3nc1O2)C(=O)NS(=O)(=O)C1CC1", "system": "human", "setting": "dose not given", "endpoint": "urinary radioactivity recovery", "result": "< 1%"}
{"SMILES": "Cc1cccc2c1ccc1cc(C(C)C)ccc12", "system": "zebrafish embryos, whole embryo", "setting": "126.3 ng/well, 48 hpf, single exposure", "endpoint": "amount in tissue", "result": "1.65 ng/well and 1.54 ng/well and 1.64 ng/well"}
{"SMILES": "CCN(CCO)CCCC(C)Nc1ccnc2cc(Cl)ccc12 (stereo not shown)", "system": "hamster", "setting": "intraperitoneal, 50 mg/kg", "endpoint": "lung concentration", "result": "93000 nmol/kg"}
{"SMILES": "c1ccc2c(c1)cc1ccc3cccc4c5ccccc5c2c1c34", "system": "zebrafish embryos, whole embryo", "setting": "756 ng/well, 48 hpf, single exposure", "endpoint": "amount in tissue", "result": "0.451 ng/well and 0.3 ng/well and 0.394 ng/well"}
{"SMILES": "C[C@@H]1[C@H](O)[C@@H](C)/C=C/C=C/CC/C=C/C=C/C=C/C=C/C(O[C@H]2O[C@H](C)[C@@H](O)[C@H](N)[C@@H]2O)CC2O[C@](O)(CC(O)C(O)CCC(O)CC(O)CC(O)CC(=O)O[C@H]1C)CC(O)C2C(=O)O (stereo partly shown)", "test": "solubility in supercritical CO2", "endpoint": "crossover pressure", "result": "~24 MPa"}
{"SMILES": "C1=Cc2cccc3cccc1c23", "system": "fish", "setting": "dose not given, experimental mean", "endpoint": "bioconcentration factor", "result": "269 L/kg"}
{"SMILES": "C[C@@H](O)[C@@H]1NC(=O)[C@H](CCCCN)NC(=O)[C@@H](Cc2c[nH]c3ccccc23)NC(=O)[C@H](Cc2ccccc2)NC(=O)[C@@H](NC(=O)[C@H](N)Cc2ccccc2)CSSC[C@@H](C(=O)N[C@H](CO)[C@@H](C)O)NC1=O", "system": "healthy volunteers", "setting": "dose not given", "endpoint": "volume of distribution", "result": "18 to 30 L"}
{"SMILES": "N.N.[Cl][Pt][Cl]", "test": "refers to: total platinum", "system": "mouse, plasma", "setting": "intravenous, 2.6 mg Pt/kg", "endpoint": "AUC", "result": "29200 ng·h/mL"}
{"SMILES": "O=C1CCc2ccc(OCCCCN3CCN(c4cccc(Cl)c4Cl)CC3)cc2N1", "system": "dog", "endpoint": "fraction unbound", "result": 0.001}
{"SMILES": "O=S(=O)(O)C(F)(F)F", "endpoint": "pKa", "result": "~-6"}
{"SMILES": "CCOC(=O)C1=C[C@@H](OC(CC)CC)[C@H](NC(C)=O)[C@@H](N)C1", "system": "human", "endpoint": "blood-to-plasma ratio", "result": 1.42}
{"SMILES": "Cn1cc(C2=C(c3cn(C4CCN(Cc5ccccn5)CC4)c4ccccc34)C(=O)NC2=O)c2ccccc21", "system": "water", "endpoint": "solubility", "result": "< 1000 µg/mL"}
{"SMILES": "NS(=O)(=O)Cc1noc2ccccc12", "system": "dog", "endpoint": "fraction unbound", "result": 0.428}
{"SMILES": "NC1CCCCC1N.O=C([O-])C(=O)[O-].[Pt+2] (stereo not shown)", "system": "mouse", "setting": "intravenous", "endpoint": "MTD", "result": "4 mg/kg"}
{"SMILES": "CN1Cc2c(N)cccc2C(c2ccccc2)C1 (stereo not shown)", "system": "mouse", "endpoint": "fraction unbound", "result": 0.078}
{"SMILES": "O=C1CCC(N2C(=O)c3ccccc3C2=O)C(=O)N1 (stereo not shown)", "system": "human", "endpoint": "blood-to-plasma ratio", "result": 0.905}
{"SMILES": "Fc1ccc([C@@H]2CCNC[C@H]2COc2ccc3c(c2)OCO3)cc1", "system": "dog", "endpoint": "fraction unbound", "result": 0.004}
{"SMILES": "Cc1ccc2ccccc2c1", "system": "zebrafish embryos, whole embryo", "setting": "355.5 ng/well, 48 hpf, single exposure", "endpoint": "amount in tissue", "result": "0.664 ng/well and 0.625 ng/well and 0.662 ng/well"}
{"SMILES": "CC(C)(C)c1ccc(C(O)CCCN2CCC(C(O)(c3ccccc3)c3ccccc3)CC2)cc1 (stereo not shown)", "system": "human, plasma", "setting": "concentration not given, range of reported values", "endpoint": "Cmax", "result": "2 to 568 nM"}
{"SMILES": "O=C(O)C(F)(F)C(F)(F)C(F)(F)C(F)(F)F", "system": "human", "endpoint": "half-life", "result": "12.5 h"}
{"SMILES": "CC(=O)CC(c1ccccc1)c1c(O)c2ccccc2oc1=O (stereo not shown)", "system": "dog", "endpoint": "fraction unbound", "result": 0.384}
{"SMILES": "CCN(C)C(=O)Oc1cccc([C@H](C)N(C)C)c1", "system": "plasma", "endpoint": "free Cmax", "result": "59.9 nM"}
{"SMILES": "CC(C)(c1ccc(O)cc1)c1ccc(O)cc1", "system": "CD-1 mouse, female", "setting": "100 mg/kg", "endpoint": "dose-normalized AUC", "result": "29.8 (nmol·h/mL)/(mmol/kg)"}
{"SMILES": "COC(=O)[C@H]1[C@@H](c2ccc(C)cc2)C[C@@H]2CC[C@H]1N2C/C=C/C[18F]", "test": "PET", "system": "rat, striatum", "setting": "dose not given, 24 min", "endpoint": "tissue concentration", "result": "0.862 MBq/cc and 0.563 MBq/cc and 0.681 MBq/cc and 0.889 MBq/cc and 0.827 MBq/cc"}
{"SMILES": "CCN(C)C(=O)Oc1cccc([C@H](C)N(C)C)c1", "system": "mouse", "endpoint": "fraction unbound", "result": 0.341}
{"SMILES": "CCCCCOc1ccc(-c2ccc(-c3ccc(C(=O)N[C@H]4C[C@@H](O)[C@@H](O)NC(=O)[C@@H]5[C@@H](O)[C@@H](C)CN5C(=O)[C@H]([C@@H](C)O)NC(=O)[C@H]([C@H](O)[C@@H](O)c5ccc(O)cc5)NC(=O)[C@@H]5C[C@@H](O)CN5C(=O)[C@H]([C@@H](C)O)NC4=O)cc3)cc2)cc1", "system": "healthy volunteers", "setting": "200 mg day 4 then 100 mg days 5-13", "endpoint": "volume of distribution", "result": "35.2 ± 14.4 L"}
